Measured values of several laboratories.
Compare with care: the assays were run in different laboratories. ± gives the spread as reported.

| Compound | test system | setting | how to read | measurement | value |
| --- | --- | --- | --- | --- | --- |
| NC(=O)c1cnc2[nH]ccc2c1NC1C2CC3CC1CC(OS(=O)(=O)O)(C3)C2 (centres unmarked) | Japanese adults, moderate hepatic impairment, plasma | oral, 150 mg single dose |  | AUC(0-t) | 2480 ng·h/mL |
| CCCCCCCOc1ccc(CC[C@](N)(CO)COP(=O)(O)O)cc1C(F)(F)F | rat Sprague-Dawley male, heart | oral, 1 mg/kg |  | AUC(0-t) | 846 ng·h/g |
| CN1CCN(c2ccc(Nc3ncc(Cl)c(Nc4ccccc4P(C)(C)=O)n3)cc2Br)CC1 | male Sprague-Dawley rat, plasma | oral, 25 mg/kg |  | AUC(0-t) | 2930 ng·h/mL |
| Cn1cc(C(N)=O)c(NC2C3CC4CC2CC(OS(=O)(=O)O)(C4)C3)c2ccnc1-2 (centres unmarked) | Japanese adults, moderate hepatic impairment, plasma | oral, 150 mg single dose |  | AUC(0-t) | 1130 ng·h/mL |
| CCCCC/C=C/C=C/C(=O)NCC(C)C | rat, sham-operated, plasma | oral, 50 mg/kg |  | AUC(0-t) | 337 ± 222 ng·h/mL |
| CSCC(NC(=O)c1cc(Cl)ccc1Cl)C(=O)NC(CC(C)C)B(O)O (centres unmarked) | Sprague-Dawley rat | oral, 0.30 mg/kg of prodrug | reference: whole blood over plasma | AUC(0-t) ratio | > 100 fold |
| Cc1cc2c(cc1C1(c3ncc(C(=O)O)cn3)CC1)C(C)(C)CCC2(C)C | rat Sprague-Dawley male, plasma | oral, 100 mg/kg, sesame oil |  | AUC(0-t) | 50400 ng·h/mL |
| N=C(N)NCCC[C@H](NC(=O)[C@@H]1CCCN1C(=O)[C@H](Cc1ccccc1)NC(=O)[C@@H]1CCCN1C(=O)[C@H](Cc1c[nH]cn1)NC(=O)[C@@H](N)Cc1ccccc1)C(=O)O | Sprague-Dawley rat male, plasma | intravenous, 10 mg/kg, 120 min |  | AUC(0-t) | 22.5 ± 6.4 ng·h/mL |
| COC(=O)/C=C/C(=O)c1ccc(OC)cc1 | Sprague-Dawley rat, both sexes, plasma | oral, 100 mg/kg |  | AUC(0-t) | 1140 ± 168 ng·h/mL |
| C[Si]1(C)CNC(=O)c2ccccc21 | Sprague-Dawley rat, male, plasma | oral, 5 mg/kg |  | AUC(0-t) | 3170 ± 712 ng·h/mL |
| COc1ccnc(C[S+]([O-])c2nc3cc(-n4cccc4)ccc3[nH]2)c1C (centres unmarked) | male Sprague Dawley rats, plasma | oral, 10 mg/kg ilaprazole racemate | reference: compound over R-ilaprazole | AUC(0-t) ratio | 1.28 |
